Measured values pooled from the literature.
A part holds a random share of what one study measured.

Sample 1 — technique: RNA Bind-n-Seq; molecule type: RNA; matrix: in vitro; tested at: 365 nM; reference: no-protein control; reading: higher = stronger binding
Target: RNA binding protein fox-1 homolog 2, RRM domain, GST-SBP tag (RBFOX2, Homo sapiens, UniProt O43251-10, residues 100-194)
Setting: natural RNA segment, single round, ends assumed
Shared flanks, not repeated: GGGAGUUCUACAGUCCGACGAUC … UGGAAUUCUCGGGUGCCAA
Construct (chain): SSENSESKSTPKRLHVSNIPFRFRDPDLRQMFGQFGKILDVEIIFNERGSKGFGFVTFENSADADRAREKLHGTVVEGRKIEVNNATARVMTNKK
Strand | RBNS enrichment (R)
AUUCUUAGUUGUUCAGUUGCCAAGGAUCCCUGAUCCCAUUUUCCUCUGACGUCCACCUCCUACCCCAUAGGAGUUAGAAGUUAGGGUUUAGGCAUCAUUUUGAGAAUGCU | 0.244
ACAGUAGACCAGUUGCUCUUUGCUUCAGGUCCCUUUGAUGGAGUCUGUCAUCAGCCAGUGCUAACACCGGGCCAAUAAGAAUAUAACACCAAAUAACUGCUGGCUAGUUG | 0.214
ACAGACUCAGGUUUCUUUGGACCAAAUCCAAAAGAACACAUAGCUGUAACACAGCUGUAGCUGCCUAGAAUGCUCUGUAUACUUUAUAUUAAAAAUGCUCUGCAUUUCUU | 0.228
UUGUUACUCAAUAUGUCUACUCAGAAUACGUUUACCCUCCGUCUUGAUUAGGUGGCCUUUUCUGUGCAGUUACUAAUCACAGGAAUUUGGUAGUAGUGAAAAUCAGGUUU | 0.383
CCUAAAAAUGUGGAAAAGCACGCCAAAGCCUUAUUUAAAUAAUAACUAUUAAACUAUUCAAAAAGAAGACUGUUAUUUUAUUUAACACCUUUGUUUUUUAAGAAUGAACA | 2.29
AAGUAUUUGAUAUCAUUGUACAUAAGAGUUUUCAGAGAUUUCAUAUAUAUCUUUUACAGAGGCUAUUUUAAUCUUUAGUGCAUGGUUAACAGAAAAAAAUUAUACAAUUU | 5.01
UUCUGUUUCUGUUUAUAAUGAAGAACACUGUAGCUACAUUUUCAGAAGUUAACAUCAAGCCAUCAAACCUGGGUAUAGUGCAGAAAACGUGGCACACACUGACCACACAU | 0.58
GAGGGGGAAAGAUUCUACUUCAAAUCUUUAACAACAAGAGUGAUUCUGUUCAGCUGGGGUAGAGUGAGGAUGAAAAGUCAGCCACCACUCUGUGGCAGGGUUGCUGGGUG | 0.487
UUAUUCGUGAAAGGAAGAGCAGUUGUUAUUUAUUGUGAGGUCUCUUGCUUGUAAAGUAAAAGCUUUUUUUCCUUGUAAACCAUUUAAGUCCAUUCCUUACUAUUCACUCA | 0.355
UCUCUCAUUUUUUUCCUCCCAGUUUCCAAACAAGCCCUCAGUGAACAUCAUUGAAGCGUGACUGCCUGUCUGCAGGGAGAAGGAUUCCAUUUUUCUUCUCAGCUGGUCCC | 0.342
UCUAUAACAACUUAAUGUAUUAAGUUCUGACUGUGCUUCAUAUCAUGUACCUCUCUAGUGAAGUAGAUGCGCAAACAUUCAGUGACAGCAAAUCAGUGUUAGUGACAAGC | 0.303
CCAAGUGUCCAGCCUGGCACUUCCCAUUCAGGCCACCUGCUUUGGGUCAACAGUUCCUUUGCCAGCAGCAUCUCCUAAAUUGUAAGGACUCUGUCCACCGGGGCCCUCCC | 0.718

Sample 2 — technique: RNA Bind-n-Seq; molecule type: RNA; matrix: in vitro; tested at: not given; setting: RNA with constant flanks, ends assumed; reference: input RNA pool; reading: higher = stronger binding
Target: RING finger protein unkempt homolog, zinc fingers 1-6, GST-SBP tag (UNK, Homo sapiens, UniProt Q9C0B0, residues 30-357)
Sequence of UniProt Q9C0B0 (30-357, looked up): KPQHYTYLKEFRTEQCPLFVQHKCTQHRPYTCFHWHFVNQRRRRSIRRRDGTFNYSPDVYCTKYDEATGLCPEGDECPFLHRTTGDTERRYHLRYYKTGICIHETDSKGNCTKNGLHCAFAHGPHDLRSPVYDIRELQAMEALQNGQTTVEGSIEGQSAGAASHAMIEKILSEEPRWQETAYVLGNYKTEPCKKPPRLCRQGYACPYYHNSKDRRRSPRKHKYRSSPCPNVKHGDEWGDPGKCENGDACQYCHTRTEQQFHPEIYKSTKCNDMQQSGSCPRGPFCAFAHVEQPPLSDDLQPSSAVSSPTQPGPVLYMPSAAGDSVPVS
Shared flanks, not repeated: GGGAGUUCUACAGUCCGACGAUC … CAACAGAGGAUUGAGCAUCA
Strand | bound/input enrichment [ratio]
GACGAUGUCAUACAGCGCAAGAGGGAGCUGUGGCCACCUGAGAAGCUUCAAGAGACCGAGGAAUUCAAAGAGAGGUUACGGAAGCGGCGGGAGGAGAAGCUCCUUCGCGACGCCCAGCAG | 0.133
AUCAUCGAGGCAUUUUAUGGAGGCUCCCAUCGACAGCUGGUAGAGCUGCUCCGAGAAGAAUCCGAUGACUGCGUGUUGUACACUCUUCCUGCAAAGAAAUGGCACUGGAGAGCACGCACA | 0.0907
UCAGGGGGCACGCUGAGUGGCGGCAUUCUCUCCAGUGGCAAGGGAAAAUAUAGCAGGUCCGAAGUUCAAGCCGAUGUCCAAAAGGAAAUUUUCCCCAAAGACACAGCCAGUCUUGGUGCA | 0.208
GCUUCUAAAAUGUGAUUAUCGACCAUGGUAUGCAUGAUCGUUGUAAUUGUUGACAUUCCUUUCCGAAGUUGUGAAAUGUUACAACUUGUGCUUAUGUAGACACAAUCUUCUGUCUCAGUA | 0.116
GGAAGAUAAGAUUUCUGUCUACUAAGUGAUGCUGUGAUACCUUAGGCACUAAAGCAGAGCCCGUAAUGCUUUUUGAGUUUCAUGUUGGUUUAUUUUCACAGAUUGGGGUAACGUGCACUG | 0.272
UCUCCAGAACAUAAAGAACUGUCUAACUCCCCACUCAGGGAGAACAGCUUUGGAUCACCUUCCGAAUUUAGAAACUCAGGCCCACUUGGUACAGAAAUGAAUACUGGAUUUUCUUCUGAG | 0.195
AAGUCUUUGGGAAGCAGUGAUUUGAAAUUUUGAGGUGACAGGCUUUUAAGGUAUAUUUUGCCGCAUGGGUUGGCAAUCUACAGCAUGUGGGCCAAAUCCAGCCUGCUGCCUGUUUUUAUA | 0.377
GUGCUGAGUUACACCAGAAUGUAAAUGUGAAGAACAUAAUCAUUGCUUUAAUUGACCGAUCCGCUUUAUUUGCUCACCGUGAAGAUGGACCUGGAAUCCCAGCGGAUAUUAAACUUUUUG | 0.248
GUCAUCGAUGCAGGAGUCUGCAGGAGGCUUGUGGAACUUCUGAUGCAUAAUGACUAUAAAGCCGUUUCUCCUGCUUUGCGGGCUGUGGGAAACAUUGUCACAGGGGAUGAUAUUCAGACA | 0.185
AAAAACCUGGAGAAAAUUAGCAGACAGUCUAGUGUGCUCAUGGAUAACAUGAAACACCUAUCCGAGCUAAAUAAAUUAAUAAUGAAAUCACAGCAGGAAUCUUGGGAUUUAGAGGAAAAA | 1.69
GAUGGAUUUUACUUUUCAACAACAUAUGAUUUGACCCAUACUUUGCAGCGGCUAUCCAACACCCGUCCUGAAUUCCAAGAAAUGAGUCUCUUGGAAAGGGCAGAUCAGCGGUUUGUAUGG | 0.203

Sample 3 — technique: RNA Bind-n-Seq; molecule type: RNA; matrix: in vitro; tested at: 200 nM; setting: whole 134-nt RNA, ends assumed; added: 150 mM KCl; reference: input library; reading: higher = stronger binding
Target: Ras GTPase-activating protein-binding protein 1, full length (G3BP1, Homo sapiens, UniProt Q13283)
Sequence of UniProt Q13283 (whole entry, looked up): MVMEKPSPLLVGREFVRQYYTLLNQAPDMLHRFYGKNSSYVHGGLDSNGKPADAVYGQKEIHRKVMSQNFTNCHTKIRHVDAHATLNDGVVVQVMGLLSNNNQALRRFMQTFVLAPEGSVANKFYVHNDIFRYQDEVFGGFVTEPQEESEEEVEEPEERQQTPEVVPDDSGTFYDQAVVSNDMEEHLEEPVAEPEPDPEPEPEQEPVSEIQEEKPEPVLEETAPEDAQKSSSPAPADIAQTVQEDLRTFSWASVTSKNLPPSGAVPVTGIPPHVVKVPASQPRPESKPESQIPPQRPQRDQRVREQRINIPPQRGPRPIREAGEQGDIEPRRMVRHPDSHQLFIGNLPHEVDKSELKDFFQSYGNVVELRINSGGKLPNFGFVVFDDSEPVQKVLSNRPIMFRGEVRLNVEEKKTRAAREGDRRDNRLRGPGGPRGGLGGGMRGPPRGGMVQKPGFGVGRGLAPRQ
Shared flanks, not repeated: GGGAGUUCUACAGUCCGACGAUC … UGGAAUUCUCGGGUGUCAAGG
Strand | log2 enrichment
UAACUUUCGAGGAGGAUCUGAUGGAUAUGGCAGUGGACGUGGAUUUGGGGAUGGCUAUAAUGGGUAUGGAGGAGGACCUGGAGGUGGCAA | 0.509
UGUUGAAAUGGGACAGUUGGCAGCGGCUCUGAUGAGCCCGAGAAGAGGCCUGCCCUUGGGUGCGGAGUCUCCCUCCGCACGAUGCUCCCA | -0.767
AAGUCCUGUGCUACACAUCGUAUGUACCGAAUCGGGAGGGAAAAAAAGGGAAAGGGAAAGUAUUAUGUUACGCCGUUCGGAUCUGCACUU | 0.0917
UCCUGUGCUACACAUCGUAUGUACCGAAUCGGGGUGGGGUUUUUGGGGUUUUUUUGGGGAAAGUAUUAUGUUACGCCGUUCGGAUCUGCA | 0.508
UCAAGUCCUGUGCUACACAUCGUAUGUACCGAAUCGGGAAGGGAAGGGGAAGGGAAAGUAUUAUGUUACGCCGUUCGGAUCUGCACUUCC | 1.19
UAACUUUAGAGGAGGAUCUGAUGGAUAUGGCAGUGGACGUGGAUUUGGGGAUGGCUAUAAUGGGUAUGGAGGAGGACCUGGAGUUGGCAA | 0.205
UGUGCUACACAUCGUAUGUACCGAAUCGGGGAAAAAAAGGGGAAAAAGGGGUUUUUUUGGGGAAAGUAUUAUGUUACGCCGUUCGGAUCU | -0.135
AAGUCCUGUGCUACACAUCGUAUGUACCGAAUCGGUUUGGAAAAAAAGGUUUUUGGAAAGUAUUAUGUUACGCCGUUCGGAUCUGCACUU | -1.44
AGUCCUGUGCUACACAUCGUAUGUACCGAAUCGGGUUUUUGGGUUUUUGGGUUUGGGAAAGUAUUAUGUUACGCCGUUCGGAUCUGCACU | -0.341
GCAGGAAGUAAAAACAAAUGGAAAUGCUUCGGAUAGUGGCCGGGGUGGGGGUUGCUAAGGAAAGGGUGGGAUGGGAGUGGGUAAAGAGUU | 0.879
GUCCUGUGCUACACAUCGUAUGUACCGAAUCGGAAAAAAGGGAAAAAAGGAAAAAAGGGAAAGUAUUAUGUUACGCCGUUCGGAUCUGCA | -0.802
UCAAGUCCUGUGCUACACAUCGUAUGUACCGAAUCGGUGGUUUUUUUGGUUUGGAAAGUAUUAUGUUACGCCGUUCGGAUCUGCACUUCC | -0.977
UAACUUUAGAGGAGGAUCUGAUGGAUAUGGCAGUGGACGUGGAUUUGGGGAUGGCUACAAUGGGUAUGGAGGAGGACCUGGAGGUGGCAA | 0.315
CAAGUCCUGUGCUACACAUCGUAUGUACCGAAUCGGUGGAAAAAGGAAAAAAAGGAAAGUAUUAUGUUACGCCGUUCGGAUCUGCACUUC | -0.826

Sample 4 — technique: universal PBM; molecule type: double-stranded DNA, one strand shown; matrix: in vitro; tested at: 600 nM; reading: higher = stronger binding
Target: Sal-like protein 4, full length isoform A (SALL4, Homo sapiens, UniProt Q9UJQ4, residues 1-1053)
Sequence of UniProt Q9UJQ4 (whole entry, looked up): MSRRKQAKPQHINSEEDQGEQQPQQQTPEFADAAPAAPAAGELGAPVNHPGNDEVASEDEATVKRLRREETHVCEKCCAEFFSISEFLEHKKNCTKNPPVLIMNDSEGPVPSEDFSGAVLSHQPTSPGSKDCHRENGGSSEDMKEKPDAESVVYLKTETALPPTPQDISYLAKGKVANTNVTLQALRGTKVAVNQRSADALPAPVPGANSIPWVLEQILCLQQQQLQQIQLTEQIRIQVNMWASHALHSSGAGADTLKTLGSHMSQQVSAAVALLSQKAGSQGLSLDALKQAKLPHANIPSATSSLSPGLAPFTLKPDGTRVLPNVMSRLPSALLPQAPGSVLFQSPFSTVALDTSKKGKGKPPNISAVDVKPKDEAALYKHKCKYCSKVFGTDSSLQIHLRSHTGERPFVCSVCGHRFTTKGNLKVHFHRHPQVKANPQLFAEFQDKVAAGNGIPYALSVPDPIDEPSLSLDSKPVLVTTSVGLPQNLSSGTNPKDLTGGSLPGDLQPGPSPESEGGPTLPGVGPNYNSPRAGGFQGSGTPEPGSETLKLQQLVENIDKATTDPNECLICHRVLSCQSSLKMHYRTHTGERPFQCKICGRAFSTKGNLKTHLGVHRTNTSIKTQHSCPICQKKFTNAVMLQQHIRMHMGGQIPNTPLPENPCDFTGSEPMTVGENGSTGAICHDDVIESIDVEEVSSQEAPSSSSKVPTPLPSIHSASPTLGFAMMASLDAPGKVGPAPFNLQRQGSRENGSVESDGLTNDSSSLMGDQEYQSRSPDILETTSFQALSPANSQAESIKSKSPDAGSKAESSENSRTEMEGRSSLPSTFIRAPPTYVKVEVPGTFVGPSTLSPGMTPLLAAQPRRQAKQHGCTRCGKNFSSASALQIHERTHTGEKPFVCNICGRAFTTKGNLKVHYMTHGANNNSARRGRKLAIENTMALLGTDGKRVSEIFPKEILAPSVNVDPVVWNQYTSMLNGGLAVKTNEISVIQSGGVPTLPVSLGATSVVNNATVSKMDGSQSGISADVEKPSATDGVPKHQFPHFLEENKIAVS
Setting: 8-mer, flanks averaged, mean of replicates
Strand | E-score
GTAATCCA | 0.123
GCATATGA | 0.199
ACTCTATC | 0.119
AGAAGACA | 0.103
ACGTCTCA | -0.0259
CCGACTTA | 0.0932
CAGAGAAC | -0.0422
AGTACGAC | 0.00367
CTACCGTC | -0.221
CGTCCAGC | -0.218
GCATCCAA | -0.213
CGGGTGTA | -0.154
CATGCGTC | -0.164
ACATCAGA | 0.123
AAGAATCA | 0.229
AAGGGCAG | -0.232
CACTTCAA | 0.0957
TATGCGAA | 0.211

Some of these lines once more (sample 3):
Strand | log2 enrichment
GCAGGAAGUAAAAACAAAUGGAAAUGCUUCGGAUAGUGGCCGGGGUGGGGGUUGCUAAGGAAAGGGUGGGAUGGGAGUGGGUAAAGAGUU | 0.879
CAAGUCCUGUGCUACACAUCGUAUGUACCGAAUCGGUGGAAAAAGGAAAAAAAGGAAAGUAUUAUGUUACGCCGUUCGGAUCUGCACUUC | -0.826
UCAAGUCCUGUGCUACACAUCGUAUGUACCGAAUCGGGAAGGGAAGGGGAAGGGAAAGUAUUAUGUUACGCCGUUCGGAUCUGCACUUCC | 1.19
